{"data": "Experimental data of several laboratories", "note": "Each numbered part is a random draw from the data of one study; scales do not carry over between parts."}
{"data": "Block 1", "target": "RNA binding protein fox-1 homolog 2, RRM domain, GST-SBP tag (RBFOX2, Homo sapiens, UniProt O43251-10, residues 100-194)", "technique": "RNA Bind-n-Seq", "molecule type": "RNA", "matrix": "in vitro", "tested at": "365 nM", "notes": "natural RNA segment, single round, ends assumed", "relative to": "no-protein control", "direction": "higher = stronger binding", "shared flanks, not repeated": "GGGAGUUCUACAGUCCGACGAUC … UGGAAUUCUCGGGUGCCAA", "Construct (chain)": "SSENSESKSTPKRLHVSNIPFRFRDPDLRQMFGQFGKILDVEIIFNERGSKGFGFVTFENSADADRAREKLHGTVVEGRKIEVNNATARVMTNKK"}
{"Sequence": "AUAAAAUUAAGGACACUGAAAAUUCUUAUGCUUGAUGAAAAACUUAAGGCUAGCCUAGAAGGGCCAAACAUGUCCUUAUUGACAAAGCUGGUCUUUGUCGCCUAAUUAGG", "RBNS enrichment (R)": 0.356}
{"Sequence": "CCUCGGCCUCCCAAAGUGCUGGGAUUAGAGGCGUGAGCCACUGCACCUGGCCUGUAGCAAAUAAUUUUUAAGCAUUCUCAAGAUGUAUGAUGUUGGGUUUAACAUCAUAU", "RBNS enrichment (R)": 0.323}
{"Sequence": "GUCUGCUCUGAGCCUUAAAACACAGAUUGAAGAAGAAAAGAAAGAAAAAACUUAAAUAUUUAUUUCUAUGCUUUGUUGCCUCUGAGAAUAAUGACAAUUUAUGAAUUUGU", "RBNS enrichment (R)": 0.767}
{"Sequence": "CCAGGUGGCUUUAGGGUCCUAAGGAGUGGAGAAGGAUGGCACUGGGGAGGUCUGGAUGGAUCUGUGUAGGAGUUCCCUGUAGAUAAAUUACUGAUCCCCCAUCUACUAUC", "RBNS enrichment (R)": 1.2}
{"Sequence": "GUUCUCUCCCAUCCUUGCCCCUGGUUCAGGAGCCAUUCUACCUGCCUCAGUGGCCAGGCGCAAGGCUACAGGUGCAGUCACCUGUUCCCGGCCACCUUCCCUCCCAUCUU", "RBNS enrichment (R)": 0.3}
{"Sequence": "CUCCCCCAAGGCUCCCUGCCCCUCCUCAUGCCCCUCUGUCCUCUGCGUUUUUUCUGUGUAAUCUAUUUUUUAAGAAGAGUUUGUAUUAUUUUUUCAUACGGCUGCAGCAG", "RBNS enrichment (R)": 1}
{"Sequence": "UCCAGUGCAAAAGGCCUAGACACUCCCAGUAGCCCAGCCUCUCUGGUCAUCUCUCCGUUCACACCCGAGGCUACACCUGAGGCUGAUUUCCUAAGGCUCCCUCCCAGGCA", "RBNS enrichment (R)": 0.939}
{"Sequence": "AAUAUAUACAGUAAUUGUAGGGUCAUACCUCAAAUGCUGGUAUCUUACUUGGCCAUGGGGUUGCUUGUUUAAAUAUUAAACUUACCCUUGUGACCUCUGUCCACAGUCAU", "RBNS enrichment (R)": 0.222}
{"data": "Block 2", "target": "Centromere-binding protein 1, full length, N-terminal tag (CBF1, Saccharomyces cerevisiae, UniProt P17106, residues 1-351)", "technique": "protein-binding microarray", "molecule type": "double-stranded DNA, one strand shown", "matrix": "in vitro", "tested at": "0.8 µM", "notes": "whole 60-bp probe, no competitor", "direction": "higher = stronger binding", "shared flanks, not repeated": "… GTCTTGATTCGCTTGACGCTGCTG", "UniProt P17106, sequence (whole entry, looked up)": "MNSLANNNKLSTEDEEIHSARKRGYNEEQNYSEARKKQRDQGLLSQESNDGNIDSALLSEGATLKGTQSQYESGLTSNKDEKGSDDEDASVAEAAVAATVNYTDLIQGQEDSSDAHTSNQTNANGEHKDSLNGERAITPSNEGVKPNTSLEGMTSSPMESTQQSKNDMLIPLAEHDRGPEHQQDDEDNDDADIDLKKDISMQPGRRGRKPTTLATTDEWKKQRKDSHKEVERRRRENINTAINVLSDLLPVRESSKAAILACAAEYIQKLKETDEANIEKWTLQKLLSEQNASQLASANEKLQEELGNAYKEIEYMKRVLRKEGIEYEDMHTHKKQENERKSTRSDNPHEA"}
{"Sequence": "CTACTTTCGCATCGTCACCGATTTAAAGCTCTCTTC", "fluorescence intensity [a.u.]": 555}
{"Sequence": "CTACGATAGCTTTATTGCGTGATCTTCCCTTACTTC", "fluorescence intensity [a.u.]": 572}
{"Sequence": "CTATTTCAGGGTTGTCAGGAGATCCTTCCCTCATTC", "fluorescence intensity [a.u.]": 582}
{"Sequence": "CTAATTCGAGACCTGTCCGTGATGTCGAGGACATTC", "fluorescence intensity [a.u.]": 543}
{"Sequence": "GAATAACATTCTTGTGGTCACGTGATGTGTATGTAG", "fluorescence intensity [a.u.]": 40600}
{"Sequence": "GAAAAATGTATCATGCACGTATGACAGAGAGAATAG", "fluorescence intensity [a.u.]": 682}
{"Sequence": "CTACGCGTGATTCCAAAGGTGATGAAGGGTACATTC", "fluorescence intensity [a.u.]": 620}
{"Sequence": "CTATATAAGGAATGACACGAAGAGAGCAGACTATTC", "fluorescence intensity [a.u.]": 548}
{"Sequence": "CTAACATATACTATGCACGTTTTTTATATGACGTTC", "fluorescence intensity [a.u.]": 1010}
{"Sequence": "CCTAACTACTATAATCAGTTGGAATAGCTTCGTACA", "fluorescence intensity [a.u.]": 500}
{"Sequence": "CTAATACAAATGAACCACGCAATCCTTTACTACTTC", "fluorescence intensity [a.u.]": 511}
{"Sequence": "GAAAAGGGAACGTGTCACGTGCTTCGTCGTTCATAG", "fluorescence intensity [a.u.]": 18200}
{"Sequence": "GAACTACAGCATGCAATCGTGGTCAGAATTCTATAG", "fluorescence intensity [a.u.]": 529}
{"Sequence": "CCTAACTACTATAATATCGTGCGATAGCTTCGTACA", "fluorescence intensity [a.u.]": 522}
{"Sequence": "CCTAACTACTATAAACACATGGAATAGCTTCGTACA", "fluorescence intensity [a.u.]": 570}
{"Sequence": "GAAAACGTGTGCTTTCGCCTGATTCAGTAATCATAG", "fluorescence intensity [a.u.]": 550}
{"Sequence": "CTAGATATACCACACCACGTGAGCTTATAGAAGTTC", "fluorescence intensity [a.u.]": 6990}
{"Sequence": "GAAGAAGAGATACCTCACGTCTGTAATATCTAATAG", "fluorescence intensity [a.u.]": 483}
{"Sequence": "CTATTGCTGTTGAGTGGTCTCATGACAATAAAGTTC", "fluorescence intensity [a.u.]": 1160}
{"data": "Block 3", "target": "Histone acetyltransferase KAT6A, both winged helices, GST fusion (KAT6A, Homo sapiens, UniProt Q92794, residues 1-181)", "technique": "protein binding microarray", "molecule type": "double-stranded DNA, one strand shown", "matrix": "in vitro", "tested at": "not given", "notes": "8-mer, flanks averaged, mean of 2 arrays, mostly near background", "relative to": "not given", "direction": "higher = stronger binding", "Construct (chain)": "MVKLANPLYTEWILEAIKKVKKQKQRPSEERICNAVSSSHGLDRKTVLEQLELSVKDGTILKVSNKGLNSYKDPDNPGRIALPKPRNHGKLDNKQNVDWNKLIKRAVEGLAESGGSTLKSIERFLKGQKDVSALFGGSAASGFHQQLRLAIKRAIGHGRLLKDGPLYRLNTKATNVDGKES"}
{"Sequence": "GCGTCGCC", "E-score": 0.319}
{"Sequence": "GCACTAAA", "E-score": 0.104}
{"Sequence": "AGGCTACC", "E-score": -0.131}
{"Sequence": "ACGACTGG", "E-score": 0.00898}
{"Sequence": "ACGGTGCG", "E-score": 0.235}
{"Sequence": "CCAGTGGG", "E-score": -0.142}
{"Sequence": "CAACGGTG", "E-score": 0.153}
{"Sequence": "CCGGCCGA", "E-score": 0.304}
{"Sequence": "AAGCTATA", "E-score": -0.0318}
{"Sequence": "CCTCCAAA", "E-score": -0.171}
{"Sequence": "CTGATTTA", "E-score": -0.123}
{"Sequence": "CTATTACC", "E-score": 0.0133}
{"Sequence": "ATCCTTGC", "E-score": -0.0574}
{"Sequence": "CTGGATTA", "E-score": -0.0506}
{"Sequence": "AATACCCG", "E-score": 0.175}
{"Sequence": "ATTCTGAC", "E-score": 0.0873}
{"Sequence": "CATCCCTC", "E-score": -0.21}
{"Sequence": "ATATTCAG", "E-score": 0.0563}
{"Sequence": "AATGTGAA", "E-score": -0.0585}
{"Sequence": "GCCCCGTA", "E-score": 0.131}
{"Sequence": "GGCTAACA", "E-score": 0.0141}
{"Sequence": "CCACAAGA", "E-score": -0.212}
{"Sequence": "ATGTAAAA", "E-score": -0.0259}
{"Sequence": "GGTCCTTA", "E-score": -0.0285}
{"data": "Block 4", "target": "Interferon regulatory factor 3, full length, phosphomimetic (IRF3, Homo sapiens, UniProt Q14653, residues 1-427, S386D/S396D/S398D/S402D/T404D/S405D)", "technique": "protein-binding microarray", "molecule type": "double-stranded DNA, one strand shown", "matrix": "in vitro", "tested at": "2540 nM top", "notes": "60-bp whole probe", "with": "salmon DNA 0.4 mg/ml", "relative to": "random background probes", "direction": "higher = stronger binding", "shared flanks, not repeated": "GCCTAGCAC … GTCTTGATTCGCTTGACGCTGCTG", "Construct (chain)": "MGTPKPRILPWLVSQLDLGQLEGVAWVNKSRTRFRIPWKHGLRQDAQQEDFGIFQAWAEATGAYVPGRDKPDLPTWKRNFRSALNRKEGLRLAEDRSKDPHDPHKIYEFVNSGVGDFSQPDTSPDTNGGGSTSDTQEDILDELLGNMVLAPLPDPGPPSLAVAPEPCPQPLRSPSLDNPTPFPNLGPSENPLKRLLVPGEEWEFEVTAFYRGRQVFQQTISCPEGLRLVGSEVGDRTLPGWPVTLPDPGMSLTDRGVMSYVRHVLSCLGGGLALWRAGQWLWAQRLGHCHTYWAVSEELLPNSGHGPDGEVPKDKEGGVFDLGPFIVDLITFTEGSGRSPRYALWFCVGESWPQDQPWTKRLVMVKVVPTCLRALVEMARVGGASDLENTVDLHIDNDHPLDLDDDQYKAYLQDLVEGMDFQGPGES"}
{"Sequence": "GACGGCCTGGACTTTCGGGACGTGCTA", "fitted relative affinity": "-0.419 z-score"}
{"Sequence": "AAACCATTTTTTTTCACTATGTGCTAG", "fitted relative affinity": "1.08 z-score"}
{"Sequence": "GACGGTATCGACAATGGGGACGTGCTA", "fitted relative affinity": "0.33 z-score"}
{"Sequence": "TCAGATCTCAGACTGTGACTGTGCTAG", "fitted relative affinity": "0.609 z-score"}
{"Sequence": "GACGGTATCGGGTCTCGGGACGTGCTA", "fitted relative affinity": "2.94 z-score"}
{"Sequence": "GACGATTTCAGTCTCGAGCCGTGCTAG", "fitted relative affinity": "2.12 z-score"}
{"Sequence": "CCTCCTTACTTTATGTAGGAGTGCTAG", "fitted relative affinity": "1.46 z-score"}
{"Sequence": "GACGATCTCAGTTTCGGGACGTGCTAG", "fitted relative affinity": "3.21 z-score"}
{"Sequence": "GACGATATCAGTCTAGAGACGTGCTAG", "fitted relative affinity": "0.611 z-score"}
{"Sequence": "GACGGACTGGGTATGGGGACGTGCTAG", "fitted relative affinity": "-0.703 z-score"}
{"Sequence": "TTTGAACTGAGACTGGATTAGTGCTAG", "fitted relative affinity": "-0.443 z-score"}
{"Sequence": "GACGGTCTCGGAATGGGGACGTGCTAG", "fitted relative affinity": "0.796 z-score"}
{"Sequence": "CTTTAACTCATTTTCGTTTTGTGCTAG", "fitted relative affinity": "2.95 z-score"}
{"Sequence": "CTTCTCCTCCAGGTTCTCTGAGTGCTA", "fitted relative affinity": "3.31 z-score"}
{"Sequence": "GACGATTTCGGTTTCGAGACGTGCTAG", "fitted relative affinity": "7.12 z-score"}
{"Sequence": "GGCATTTTTTTTATCAATCAGTGCTAG", "fitted relative affinity": "0.282 z-score"}
{"Sequence": "TTAGATAACAGTTTCGATTAGTGCTAG", "fitted relative affinity": "3.22 z-score"}
{"Sequence": "GACGGAATCGACTATCGGGACGTGCTA", "fitted relative affinity": "0.197 z-score"}
{"Sequence": "CCTGGCTTCATGTTGCTCTCCGTGCTA", "fitted relative affinity": "-0.927 z-score"}
{"note": "Excerpt of the above (block 4):"}
{"Sequence": "CCTCCTTACTTTATGTAGGAGTGCTAG", "fitted relative affinity": "1.46 z-score"}
{"Sequence": "AAACCATTTTTTTTCACTATGTGCTAG", "fitted relative affinity": "1.08 z-score"}
{"Sequence": "GACGGTCTCGGAATGGGGACGTGCTAG", "fitted relative affinity": "0.796 z-score"}
{"Sequence": "GGCATTTTTTTTATCAATCAGTGCTAG", "fitted relative affinity": "0.282 z-score"}
{"Sequence": "GACGGCCTGGACTTTCGGGACGTGCTA", "fitted relative affinity": "-0.419 z-score"}
{"Sequence": "TTTGAACTGAGACTGGATTAGTGCTAG", "fitted relative affinity": "-0.443 z-score"}
{"Sequence": "GACGGAATCGACTATCGGGACGTGCTA", "fitted relative affinity": "0.197 z-score"}
{"Sequence": "CCTGGCTTCATGTTGCTCTCCGTGCTA", "fitted relative affinity": "-0.927 z-score"}
{"Sequence": "GACGATTTCGGTTTCGAGACGTGCTAG", "fitted relative affinity": "7.12 z-score"}
{"Sequence": "GACGATCTCAGTTTCGGGACGTGCTAG", "fitted relative affinity": "3.21 z-score"}
